Measurements pooled from the literature.
Every numbered part comes from another study and shows a few of its results, in no order.
Sequence of UniProt P28223 (whole entry, looked up): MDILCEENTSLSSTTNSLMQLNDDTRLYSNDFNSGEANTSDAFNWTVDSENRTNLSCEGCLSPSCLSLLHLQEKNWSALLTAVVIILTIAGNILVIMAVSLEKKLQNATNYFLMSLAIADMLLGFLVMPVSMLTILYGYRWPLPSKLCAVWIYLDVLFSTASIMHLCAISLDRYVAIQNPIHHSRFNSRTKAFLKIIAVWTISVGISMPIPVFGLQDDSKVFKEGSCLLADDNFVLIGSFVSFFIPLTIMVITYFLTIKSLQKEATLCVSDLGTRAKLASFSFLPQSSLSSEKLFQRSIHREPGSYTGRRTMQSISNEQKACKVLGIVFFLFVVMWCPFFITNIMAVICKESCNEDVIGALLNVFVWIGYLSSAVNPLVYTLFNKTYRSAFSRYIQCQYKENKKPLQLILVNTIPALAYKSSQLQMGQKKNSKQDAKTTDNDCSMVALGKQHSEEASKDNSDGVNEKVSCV
Sequence of UniProt P28335 (whole entry, looked up): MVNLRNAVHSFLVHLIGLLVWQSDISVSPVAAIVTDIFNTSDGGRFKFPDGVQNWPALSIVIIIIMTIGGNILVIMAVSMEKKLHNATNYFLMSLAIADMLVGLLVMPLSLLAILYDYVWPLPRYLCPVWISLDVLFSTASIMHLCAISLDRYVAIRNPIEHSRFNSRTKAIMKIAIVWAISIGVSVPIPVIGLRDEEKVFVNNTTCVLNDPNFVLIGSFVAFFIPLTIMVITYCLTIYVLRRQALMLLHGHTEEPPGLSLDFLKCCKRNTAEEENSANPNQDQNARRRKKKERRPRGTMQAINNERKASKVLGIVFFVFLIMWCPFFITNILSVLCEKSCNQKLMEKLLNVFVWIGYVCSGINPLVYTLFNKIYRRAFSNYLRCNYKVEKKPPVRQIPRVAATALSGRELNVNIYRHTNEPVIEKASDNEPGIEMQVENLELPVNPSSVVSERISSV

Set 1
Target: vesicular stomatitis virus glycoprotein
Read-out: viral entry
Method: VSVΔG-G pseudovirus
Concentration: 10 µM
The inhibition of O=C(NCC(F)(F)F)c1ccc(CN(Cc2cc(Cl)cc3c2OCOC3)C2CC2)cc1 is reported as -6%.
For Cc1cccc(-c2[nH]c(C(C)(C)C)nc2-c2ccc3c(c2)OCO3)n1, the inhibition was -3.6%.
O=C(NC1CCCCCC1)c1ccc(-c2ccc(F)cc2)nc1 has an inhibition of -42%.
With COc1ccc([N+](=O)[O-])c(S(=O)(=O)c2ccc(Cl)cc2)n1 the inhibition was 20%.
For CCCCN1COc2c(cc(Cl)c3cccnc23)C1, the inhibition was 12%.
O=C(NC1CCN(Cc2ccccc2)CC1)c1cc2c(=O)n(Cc3ccccc3)ccc2s1 gave an inhibition of 35%.
For Cc1ccc(/C(C#N)=C2\C=CC(=NO)C(Cl)=C2)cc1, the inhibition was -4%.
With c1cc(OCCn2ccnc2)cc(-c2ccnc3[nH]ccc23)c1 the inhibition was 8%.

Set 2
Target: Dual specificity tyrosine-phosphorylation-regulated kinase 1B (DYRK1B, Homo sapiens, UniProt Q9Y463)
Read-out: enzyme activity
Action: inhibitor
Method: radiometric
Concentration: 0.5 µM
With CC(C)n1cnc2c(Nc3cccc(Cl)c3)nc(NCCO)nc21 the remaining activity was 78.8%.
For N#C/C(=C(/N)SC1C=CC=CC1)c1cccc(C(O)c2ccncc2)c1 (centres unmarked), the remaining activity was 99.9%.
The remaining activity of O=c1c(-c2ccc(F)cc2)c(-c2ccncc2)[nH]n1-c1ccc(Cl)cc1 is reported as 92.2%.
For Nc1nc(Nc2ccc(S(N)(=O)=O)cc2)nn1C(=S)Nc1c(F)cccc1F, the remaining activity was 14.1%.
O=C1NC(=O)/C(=C/c2ccc3c(c2)OC(F)(F)O3)S1 gave a remaining activity of 101%.
CC(C)(C)c1nc2c3cc[nH]c(=O)c3c3cc(F)ccc3c2[nH]1 gave a remaining activity of 88.2%.

Mixed results
CDPK1: Calcium-dependent protein kinase 1 (CDPK1, Plasmodium falciparum, UniProt P62344)
Sequence of UniProt P62344 (whole entry, looked up): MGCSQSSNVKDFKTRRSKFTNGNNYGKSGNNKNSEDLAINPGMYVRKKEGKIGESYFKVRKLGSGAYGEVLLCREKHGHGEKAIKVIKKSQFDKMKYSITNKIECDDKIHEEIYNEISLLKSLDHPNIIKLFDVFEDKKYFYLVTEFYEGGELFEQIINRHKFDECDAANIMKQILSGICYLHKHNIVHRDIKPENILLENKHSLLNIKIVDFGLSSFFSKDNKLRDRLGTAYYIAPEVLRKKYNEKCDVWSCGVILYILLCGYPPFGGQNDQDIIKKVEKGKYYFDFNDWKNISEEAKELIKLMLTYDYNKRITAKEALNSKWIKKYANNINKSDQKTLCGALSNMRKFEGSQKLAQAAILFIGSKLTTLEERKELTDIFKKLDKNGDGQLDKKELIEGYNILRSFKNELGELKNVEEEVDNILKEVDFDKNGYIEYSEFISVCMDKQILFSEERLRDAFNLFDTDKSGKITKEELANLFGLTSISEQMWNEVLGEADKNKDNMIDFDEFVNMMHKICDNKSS
For CS(=O)(=O)NCC[C@H](NC(=O)c1cncc2c1cnn2-c1ccc(F)cc1)c1ccnc(S(C)(=O)=O)c1, the inhibition was -0.86% (HTR2C (Homo sapiens, UniProt P28335); binding, radioligand binding; 10 µM).
The inhibition of Cl.Oc1cc2c(cc1O)[C@H]1c3ccccc3CN[C@@H]1CC2 is reported as -10.1% (Sarcocystis neurona; parasite growth; 10 µM, first screen).
The inhibition of Cc1c(N2CCCC2)nc2ccc(Br)cc2c1C(=O)NC[C@H](CCC(=O)O)c1ccccc1Cl is reported as 5.24% (HTR2A (Homo sapiens, UniProt P28223); cell-free assay; 10 µM).
The inhibition of CCC(COC(=O)c1cc(OC)c(OC)c(OC)c1)(c1ccccc1)N(C)C.O=C(O)/C=C\C(=O)O (centres unmarked) is reported as -20.6% (Sarcocystis neurona; parasite growth; 10 µM, first screen).
O=C(NC[C@@H]1[C@H]2CN(C(=O)OCc3cc(C(F)(F)F)cc(C(F)(F)F)c3)C[C@@H]12)c1ccc2[nH]nnc2c1 gave a remaining binding of 99% (CDPK1; cell-free assay, competition with immobilised ligand; 1 µM).
CS(=O)(=O)c1cc(C2(NC(=O)c3cncc4c3cnn4-c3ccc(F)cc3)CC2)ccn1 has a remaining binding of 99% (CDPK1; cell-free assay, competition with immobilised ligand; 1 µM).

A few entries again (set 2):
For Nc1nc(Nc2ccc(S(N)(=O)=O)cc2)nn1C(=S)Nc1c(F)cccc1F, the remaining activity was 14.1%.
O=C1NC(=O)/C(=C/c2ccc3c(c2)OC(F)(F)O3)S1 gave a remaining activity of 101%.
CC(C)(C)c1nc2c3cc[nH]c(=O)c3c3cc(F)ccc3c2[nH]1 gave a remaining activity of 88.2%.
